{"data": "Measured values collected from several papers", "note": "Parts stem from different laboratories: compare values within a part only."}
{"data": "Series 1", "SMILES": "C[C@@H]1CN(c2ccc(-c3cc(C(=O)NCCOCCOCCOCCOCCOCCOCCNC(=O)/C=C/c4[nH]cc(C(=O)N[C@@H](CC(N)=O)c5ccc(F)c(Cl)c5)c4-c4ccc(Cl)cc4F)ccc3F)cc2NC(=O)c2ccc(F)cc2C(F)(F)F)C[C@H](C)N1C", "effect on": "thermal unfolding", "technique": "differential scanning fluorimetry", "tested at": "5.5 µM", "direction": "higher = more unfolded", "DCAF1": "DDB1- and CUL4-associated factor 1 (DCAF1, Homo sapiens, UniProt Q9Y4B6)", "WDR5": "WD repeat-containing protein 5 (WDR5, Homo sapiens, UniProt P61964)", "UniProt Q9Y4B6, sequence (whole entry, looked up)": "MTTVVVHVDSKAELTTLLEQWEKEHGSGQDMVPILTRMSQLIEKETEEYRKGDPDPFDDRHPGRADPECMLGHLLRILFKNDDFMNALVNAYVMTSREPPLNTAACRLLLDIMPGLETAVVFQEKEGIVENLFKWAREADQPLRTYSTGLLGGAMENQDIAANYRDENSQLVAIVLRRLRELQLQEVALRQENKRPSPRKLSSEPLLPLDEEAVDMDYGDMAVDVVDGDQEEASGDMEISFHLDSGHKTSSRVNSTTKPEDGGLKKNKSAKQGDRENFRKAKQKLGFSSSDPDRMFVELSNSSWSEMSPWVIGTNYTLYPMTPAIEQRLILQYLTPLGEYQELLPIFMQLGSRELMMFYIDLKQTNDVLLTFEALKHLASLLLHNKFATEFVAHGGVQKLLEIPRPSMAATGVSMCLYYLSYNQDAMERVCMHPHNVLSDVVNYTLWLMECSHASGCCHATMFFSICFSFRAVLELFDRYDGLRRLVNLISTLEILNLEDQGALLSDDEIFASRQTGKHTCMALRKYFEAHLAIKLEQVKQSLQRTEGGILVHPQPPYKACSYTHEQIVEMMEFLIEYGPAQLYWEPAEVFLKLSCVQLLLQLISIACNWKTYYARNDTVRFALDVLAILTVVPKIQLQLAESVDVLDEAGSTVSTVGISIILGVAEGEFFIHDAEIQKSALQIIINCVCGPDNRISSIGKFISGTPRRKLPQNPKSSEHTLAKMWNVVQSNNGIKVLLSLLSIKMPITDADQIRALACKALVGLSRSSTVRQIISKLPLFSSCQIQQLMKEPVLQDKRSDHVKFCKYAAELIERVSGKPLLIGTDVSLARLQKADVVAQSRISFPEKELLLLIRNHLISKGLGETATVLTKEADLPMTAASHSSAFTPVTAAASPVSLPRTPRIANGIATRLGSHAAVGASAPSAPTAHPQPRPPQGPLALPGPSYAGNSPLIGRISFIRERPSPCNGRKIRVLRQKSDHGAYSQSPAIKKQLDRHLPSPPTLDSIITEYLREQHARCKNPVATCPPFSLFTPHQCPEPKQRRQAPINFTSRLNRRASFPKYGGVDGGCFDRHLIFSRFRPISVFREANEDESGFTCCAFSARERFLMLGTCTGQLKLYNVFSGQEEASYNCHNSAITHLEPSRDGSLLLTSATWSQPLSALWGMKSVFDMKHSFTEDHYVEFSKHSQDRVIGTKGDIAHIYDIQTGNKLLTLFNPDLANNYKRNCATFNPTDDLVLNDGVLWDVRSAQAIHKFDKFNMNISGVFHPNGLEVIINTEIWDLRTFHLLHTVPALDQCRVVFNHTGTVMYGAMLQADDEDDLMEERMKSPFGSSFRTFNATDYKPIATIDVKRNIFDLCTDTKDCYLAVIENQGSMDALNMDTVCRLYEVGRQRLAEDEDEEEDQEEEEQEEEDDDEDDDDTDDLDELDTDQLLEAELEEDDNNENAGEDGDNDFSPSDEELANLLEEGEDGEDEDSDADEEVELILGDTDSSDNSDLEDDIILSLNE"}
{"target": "DCAF1", "conditions": "37.4 °C", "SYPRO Orange fluorescence [a.u.]": 10900}
{"target": "WDR5", "conditions": "43.4 °C", "SYPRO Orange fluorescence [a.u.]": 14600}
{"target": "WDR5", "conditions": "32.4 °C", "SYPRO Orange fluorescence [a.u.]": 13800}
{"target": "WDR5", "conditions": "81.81 °C", "SYPRO Orange fluorescence [a.u.]": 65700}
{"target": "WDR5", "conditions": "56.21 °C", "SYPRO Orange fluorescence [a.u.]": 16200}
{"target": "DCAF1", "conditions": "81.61 °C", "SYPRO Orange fluorescence [a.u.]": 38900}
{"target": "WDR5", "conditions": "41 °C", "SYPRO Orange fluorescence [a.u.]": 14200}
{"target": "WDR5", "conditions": "36.2 °C", "SYPRO Orange fluorescence [a.u.]": 13900}
{"target": "WDR5", "conditions": "40.4 °C", "SYPRO Orange fluorescence [a.u.]": 14200}
{"target": "DCAF1", "conditions": "68.61 °C", "SYPRO Orange fluorescence [a.u.]": 49700}
{"target": "WDR5", "conditions": "51.6 °C", "SYPRO Orange fluorescence [a.u.]": 16700}
{"data": "Series 2", "Structure (SMILES)": "CCN1/C(=C/C=C2\\CCCC(/C=C/C3=[N+](CC)c4ccccc4C3(C)C)=C2NCCCCCCCCN2CCC(Nc3nc4ccccc4n3Cc3ccc(F)cc3)CC2)C(C)(C)c2ccccc21", "cell line": "U-87 MG", "tested at": "concentration not given", "baseline": "DMSO"}
{"test": "item: STC1 mRNA", "log2 fold change": 1.92}
{"test": "item: RAB3IP mRNA", "log2 fold change": 0.944}
{"test": "item: RNF44 mRNA", "log2 fold change": 0.914}
{"test": "item: SKP2 mRNA", "log2 fold change": -1.96}
{"test": "item: CNST mRNA", "log2 fold change": 1.54}
{"test": "item: TNS2 mRNA", "log2 fold change": -1.84}
{"test": "item: ACSF2 mRNA", "log2 fold change": -1.3}
{"test": "item: TVP23B mRNA", "log2 fold change": 0.807}
{"test": "item: ADAMTSL4 mRNA", "log2 fold change": -2.01}
{"test": "item: NEK2 mRNA", "log2 fold change": -1.53}
{"test": "item: EXOC6B mRNA", "log2 fold change": 1.21}
{"test": "item: RCAN2 mRNA", "log2 fold change": -2.25}
{"test": "item: RUBCNL mRNA", "log2 fold change": 2.14}
{"test": "item: TGFBR2 mRNA", "log2 fold change": -1.44}
{"test": "item: TP53I3 mRNA", "log2 fold change": -0.957}
{"test": "item: SAMD1 mRNA", "log2 fold change": -0.999}
{"data": "Series 3", "SMILES": "Cc1ccc(O)c(C)c1-c1cnc2[nH]c(-c3cnc(N4CCC5(CC4)CC(N4CCN(c6ccc(N[C@H]7CCC(=O)NC7=O)cc6F)CC4)CO5)nc3)cc2c1C#N (single isomer, unassigned)", "matrix": "plasma", "route": "oral"}
{"test system": "male beagle dog", "conditions": "5 mg/kg", "half-life": "6.3 h"}
{"test system": "Sprague-Dawley rat, male", "conditions": "20 mg/kg", "half-life": "7.7 h"}
{"test system": "CD-1 mouse, female", "conditions": "40 mg/kg", "half-life": "3.2 h"}
{"test system": "cynomolgus monkey, male", "conditions": "10 mg/kg", "half-life": "10.9 h"}
{"data": "Series 4", "Compound": "CC[C@@]1(c2cccc(C(F)(F)F)c2)C2=C(Nc3n[nH]cc31)[C@H](F)C(C)(C)CC2=O (single isomer, unassigned)", "notes": "scaled"}
{"test system": "human liver microsomes", "intrinsic clearance [mL/min/kg]": 15.2}
{"test system": "rat hepatocytes", "intrinsic clearance [mL/min/kg]": 7.5}
{"test system": "human hepatocytes", "intrinsic clearance [mL/min/kg]": 9.2}
{"test system": "rat liver microsomes", "intrinsic clearance [mL/min/kg]": 56.1}
